Assay results collected from several papers.
Numbered parts are unrelated; each lists some results of a single study.
UniProt Q16584, sequence (whole entry, looked up): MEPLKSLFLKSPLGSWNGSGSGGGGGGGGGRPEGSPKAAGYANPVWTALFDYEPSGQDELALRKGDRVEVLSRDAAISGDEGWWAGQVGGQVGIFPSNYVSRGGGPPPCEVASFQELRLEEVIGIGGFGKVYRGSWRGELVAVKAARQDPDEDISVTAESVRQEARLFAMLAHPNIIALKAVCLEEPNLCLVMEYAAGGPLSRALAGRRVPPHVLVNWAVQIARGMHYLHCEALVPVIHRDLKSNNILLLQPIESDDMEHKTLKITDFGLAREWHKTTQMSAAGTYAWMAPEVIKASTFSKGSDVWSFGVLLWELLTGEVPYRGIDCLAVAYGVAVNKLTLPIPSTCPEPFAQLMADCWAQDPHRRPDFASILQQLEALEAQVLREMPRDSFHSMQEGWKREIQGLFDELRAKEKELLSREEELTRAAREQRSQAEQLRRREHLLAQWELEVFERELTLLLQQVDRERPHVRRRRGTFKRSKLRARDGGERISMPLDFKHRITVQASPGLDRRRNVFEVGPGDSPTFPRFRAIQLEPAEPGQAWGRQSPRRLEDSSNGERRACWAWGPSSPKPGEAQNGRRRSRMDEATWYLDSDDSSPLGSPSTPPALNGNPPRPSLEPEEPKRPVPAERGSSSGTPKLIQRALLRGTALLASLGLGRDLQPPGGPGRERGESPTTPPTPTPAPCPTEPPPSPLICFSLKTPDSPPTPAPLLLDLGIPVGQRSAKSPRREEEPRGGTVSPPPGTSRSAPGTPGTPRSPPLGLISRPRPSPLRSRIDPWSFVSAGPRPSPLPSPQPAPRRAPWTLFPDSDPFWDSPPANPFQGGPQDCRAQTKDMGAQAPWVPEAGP

Sample 1
SMILES: CCn1cnc2c(Nc3cccc(Cl)c3)nc(N[C@H]3CCCC[C@H]3N)nc21
Observed: enzyme activity
Mode: inhibitor
Concentration: 0.5 µM
Baseline: control
DAPK3 (Homo sapiens, UniProt O43293) — remaining activity: 105%.
The remaining activity was 79.4% (Protein kinase C beta type, isoform beta-II (PRKCB, Homo sapiens, UniProt P05771)).
It gave 93% for remaining activity (EPHA8 (Homo sapiens, UniProt P29322)).
It gave 104% for remaining activity (CAMK2G (Homo sapiens, UniProt Q13555)).
For MAP3K11 (Homo sapiens, UniProt Q16584): remaining activity read 77.6%.
It gave 95.2% for remaining activity (MYLK2 (Homo sapiens, UniProt Q9H1R3)).
For TYK2 (Homo sapiens, UniProt P29597): remaining activity read 110%.
For ERBB4 (Homo sapiens, UniProt Q15303): remaining activity read 103%.

Sample 2
Target: DNA polymerase theta, ATPase domain (POLQ, Homo sapiens, UniProt O75417)
UniProt O75417, sequence (whole entry, unmodified, looked up): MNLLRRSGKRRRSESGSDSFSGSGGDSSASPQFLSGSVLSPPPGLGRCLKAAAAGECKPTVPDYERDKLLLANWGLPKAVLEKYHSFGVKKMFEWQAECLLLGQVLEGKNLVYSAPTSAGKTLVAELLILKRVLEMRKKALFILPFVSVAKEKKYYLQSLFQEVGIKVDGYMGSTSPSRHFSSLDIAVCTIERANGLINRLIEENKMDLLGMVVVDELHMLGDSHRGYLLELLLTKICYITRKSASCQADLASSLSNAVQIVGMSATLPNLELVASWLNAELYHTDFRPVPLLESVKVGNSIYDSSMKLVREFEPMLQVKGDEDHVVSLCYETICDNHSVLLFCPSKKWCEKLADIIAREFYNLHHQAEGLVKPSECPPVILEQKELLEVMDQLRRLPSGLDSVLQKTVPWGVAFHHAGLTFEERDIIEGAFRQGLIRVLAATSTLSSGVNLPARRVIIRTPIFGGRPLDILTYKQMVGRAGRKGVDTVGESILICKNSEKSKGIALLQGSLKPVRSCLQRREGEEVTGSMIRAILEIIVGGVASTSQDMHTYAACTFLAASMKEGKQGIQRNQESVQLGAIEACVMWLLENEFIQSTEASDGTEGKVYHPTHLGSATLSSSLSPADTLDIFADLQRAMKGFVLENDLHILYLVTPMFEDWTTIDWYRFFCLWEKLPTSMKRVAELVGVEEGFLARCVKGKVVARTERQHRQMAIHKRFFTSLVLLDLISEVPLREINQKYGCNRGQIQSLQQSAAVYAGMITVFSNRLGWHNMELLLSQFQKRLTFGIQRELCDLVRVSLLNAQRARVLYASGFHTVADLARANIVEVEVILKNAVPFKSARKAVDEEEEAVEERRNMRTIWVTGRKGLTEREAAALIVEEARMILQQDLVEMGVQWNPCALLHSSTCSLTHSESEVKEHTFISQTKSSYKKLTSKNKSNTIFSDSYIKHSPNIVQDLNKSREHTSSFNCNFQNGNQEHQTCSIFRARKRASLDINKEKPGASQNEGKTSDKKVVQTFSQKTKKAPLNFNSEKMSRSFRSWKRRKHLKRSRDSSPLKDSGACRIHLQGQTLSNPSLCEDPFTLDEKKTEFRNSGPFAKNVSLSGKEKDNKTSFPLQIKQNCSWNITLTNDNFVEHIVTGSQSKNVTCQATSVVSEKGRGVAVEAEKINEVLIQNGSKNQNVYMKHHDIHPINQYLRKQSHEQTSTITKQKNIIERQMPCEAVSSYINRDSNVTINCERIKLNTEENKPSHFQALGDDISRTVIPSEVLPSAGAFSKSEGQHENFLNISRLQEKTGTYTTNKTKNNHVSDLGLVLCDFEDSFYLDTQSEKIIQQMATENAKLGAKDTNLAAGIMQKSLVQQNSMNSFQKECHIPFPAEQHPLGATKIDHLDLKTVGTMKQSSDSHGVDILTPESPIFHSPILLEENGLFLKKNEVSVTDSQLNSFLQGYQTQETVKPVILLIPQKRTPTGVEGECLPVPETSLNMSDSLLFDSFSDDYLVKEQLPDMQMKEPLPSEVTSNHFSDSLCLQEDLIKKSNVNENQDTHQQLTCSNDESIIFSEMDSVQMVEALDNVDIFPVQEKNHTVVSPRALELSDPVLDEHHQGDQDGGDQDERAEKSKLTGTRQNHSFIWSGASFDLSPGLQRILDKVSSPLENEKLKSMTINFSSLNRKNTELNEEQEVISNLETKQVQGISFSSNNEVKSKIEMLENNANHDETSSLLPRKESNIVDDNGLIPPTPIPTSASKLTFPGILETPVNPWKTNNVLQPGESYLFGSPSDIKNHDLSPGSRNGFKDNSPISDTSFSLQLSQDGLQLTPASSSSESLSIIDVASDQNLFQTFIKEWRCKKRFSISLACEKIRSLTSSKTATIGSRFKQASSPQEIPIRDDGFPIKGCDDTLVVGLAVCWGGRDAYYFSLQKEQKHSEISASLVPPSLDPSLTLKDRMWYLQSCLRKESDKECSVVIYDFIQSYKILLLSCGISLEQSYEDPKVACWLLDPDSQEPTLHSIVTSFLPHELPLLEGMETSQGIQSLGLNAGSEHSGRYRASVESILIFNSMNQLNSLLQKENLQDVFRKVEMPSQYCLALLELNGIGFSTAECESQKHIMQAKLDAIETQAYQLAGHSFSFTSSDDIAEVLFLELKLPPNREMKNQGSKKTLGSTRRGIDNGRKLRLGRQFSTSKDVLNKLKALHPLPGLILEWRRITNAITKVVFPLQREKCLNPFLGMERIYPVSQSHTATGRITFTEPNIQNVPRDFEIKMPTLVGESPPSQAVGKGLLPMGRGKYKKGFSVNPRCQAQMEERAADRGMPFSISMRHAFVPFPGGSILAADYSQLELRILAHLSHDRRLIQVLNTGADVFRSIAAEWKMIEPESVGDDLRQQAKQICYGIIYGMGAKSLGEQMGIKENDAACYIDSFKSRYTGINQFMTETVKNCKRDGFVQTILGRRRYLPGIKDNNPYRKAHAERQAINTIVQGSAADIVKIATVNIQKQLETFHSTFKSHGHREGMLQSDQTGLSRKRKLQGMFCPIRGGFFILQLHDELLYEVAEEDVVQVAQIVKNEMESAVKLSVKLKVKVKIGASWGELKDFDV
Observed: enzyme activity
Mode: inhibitor
Concentration: 77 µM
Baseline: untreated
C/C(=C\c1csc(C)n1)[C@@H]1C[C@@H]2O[C@]2(C)CCC[C@H](C)[C@H](O)[C@@H](C)C(=O)C(C)(C)[C@@H](O)CC(=O)O1 gave a remaining activity of 100%.
With CCCC(C)(COC(N)=O)COC(=O)NC(C)C (centres unmarked) the remaining activity was 98.8%.
CCNCC(O)c1cccc(O)c1 (centres unmarked) gave a remaining activity of 103%.
C[C@]1(C(=O)O)[C@@H]2CC[C@@H](O2)[C@@]1(C)C(=O)O gave a remaining activity of 87.5%.
Cc1cc(O)ccc1Cl gave a remaining activity of 105%.

Sample 3
Target: CRBN/Zinc finger protein Helios (Homo sapiens, UniProt Q96SW2+Q9UKS7)
UniProt Q96SW2, sequence (whole entry, looked up): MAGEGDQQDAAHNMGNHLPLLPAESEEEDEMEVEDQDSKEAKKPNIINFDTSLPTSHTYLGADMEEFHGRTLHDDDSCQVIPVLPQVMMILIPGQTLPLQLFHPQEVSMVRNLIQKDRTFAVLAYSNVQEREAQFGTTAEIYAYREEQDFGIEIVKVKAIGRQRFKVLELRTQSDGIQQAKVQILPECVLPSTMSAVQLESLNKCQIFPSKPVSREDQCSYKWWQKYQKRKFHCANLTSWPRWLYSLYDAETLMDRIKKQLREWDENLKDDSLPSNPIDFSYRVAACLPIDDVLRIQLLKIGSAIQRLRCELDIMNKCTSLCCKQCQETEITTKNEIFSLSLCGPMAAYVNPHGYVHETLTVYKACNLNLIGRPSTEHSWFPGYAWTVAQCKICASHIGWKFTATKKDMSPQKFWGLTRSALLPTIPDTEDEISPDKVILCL
UniProt Q9UKS7, sequence (whole entry, looked up): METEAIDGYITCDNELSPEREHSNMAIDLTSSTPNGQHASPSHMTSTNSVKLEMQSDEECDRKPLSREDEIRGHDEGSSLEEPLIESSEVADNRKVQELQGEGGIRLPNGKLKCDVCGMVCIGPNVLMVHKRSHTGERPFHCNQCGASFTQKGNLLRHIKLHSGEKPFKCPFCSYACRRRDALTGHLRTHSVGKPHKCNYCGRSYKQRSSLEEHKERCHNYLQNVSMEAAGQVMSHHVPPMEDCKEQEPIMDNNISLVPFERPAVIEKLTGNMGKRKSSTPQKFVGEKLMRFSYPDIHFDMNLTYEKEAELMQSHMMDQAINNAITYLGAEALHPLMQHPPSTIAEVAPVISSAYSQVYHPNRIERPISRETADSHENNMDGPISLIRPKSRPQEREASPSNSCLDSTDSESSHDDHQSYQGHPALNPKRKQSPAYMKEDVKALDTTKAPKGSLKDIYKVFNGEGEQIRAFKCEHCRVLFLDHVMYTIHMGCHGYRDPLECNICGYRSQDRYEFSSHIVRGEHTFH
Mode: degrader
Method: HiBiT
Cell line: HEK293
Concentration: 0.5081 nM
With O=C1CCC(N2Cc3c(ccc4c3OCC43CCN(Cc4ccsc4)CC3)C2=O)C(=O)N1 (centres unmarked) the protein remaining was 94.6%.
O=C1CCC(N2Cc3c(ccc4c3OCC43CCN(CC4CCCCC4)CC3)C2=O)C(=O)N1 (centres unmarked) has a protein remaining of 101%.
O=C1CCC(N2Cc3c(ccc4c3OCC43CCN(Cc4ccccc4)C3)C2=O)C(=O)N1 (centres unmarked) gave a protein remaining of 96.9%.
O=C1CCC(N2Cc3c(ccc4c3OCC43CCN(Cc4ccccn4)CC3)C2=O)C(=O)N1 (centres unmarked) gave a protein remaining of 97.8%.
O=C1CCC(N2Cc3c(ccc4c3OCC43CCCN(Cc4ccccc4)CC3)C2=O)C(=O)N1 (centres unmarked) gave a protein remaining of 92.9%.
For O=C1CCC(N2Cc3c(ccc4c3OCC43CCN(Cc4ccccc4)CC3(F)F)C2=O)C(=O)N1 (centres unmarked), the protein remaining was 98.7%.

Sample 4
Target: Muscarinic acetylcholine receptor M3 (CHRM3, Homo sapiens, UniProt P20309)
UniProt P20309, sequence (whole entry, looked up): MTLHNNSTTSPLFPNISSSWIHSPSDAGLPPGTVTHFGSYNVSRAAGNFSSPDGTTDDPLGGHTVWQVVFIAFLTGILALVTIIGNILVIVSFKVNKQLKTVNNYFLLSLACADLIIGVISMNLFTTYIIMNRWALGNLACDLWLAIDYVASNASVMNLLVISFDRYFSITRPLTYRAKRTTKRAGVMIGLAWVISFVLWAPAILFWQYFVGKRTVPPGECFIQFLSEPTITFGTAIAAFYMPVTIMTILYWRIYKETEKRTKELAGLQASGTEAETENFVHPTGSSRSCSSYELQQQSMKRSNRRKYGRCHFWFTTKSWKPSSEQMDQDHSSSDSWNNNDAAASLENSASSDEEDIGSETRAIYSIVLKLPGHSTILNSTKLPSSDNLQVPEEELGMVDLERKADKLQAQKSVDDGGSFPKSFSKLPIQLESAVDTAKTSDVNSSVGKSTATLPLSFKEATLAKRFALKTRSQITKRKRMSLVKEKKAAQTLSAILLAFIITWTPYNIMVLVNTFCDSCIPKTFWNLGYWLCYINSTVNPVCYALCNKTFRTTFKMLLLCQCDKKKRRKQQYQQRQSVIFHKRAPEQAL
Observed: binding
Method: radioligand binding
Concentration: 10 µM
With O[C@]1(C(F)(F)F)CCCC[C@H]1Nc1ccc(F)cc1 the inhibition was 4.73%.
With C[C@@H]1CN(c2cc(-c3nn(C)c4ccc(OC5(C)CC5)cc34)ncn2)C[C@H](C)O1 the inhibition was 6.03%.
The inhibition of COCCc1ccc(-c2c(C)nc3c(N4CCOCC4)ccnn23)cn1 is reported as 6.41%.
The inhibition of CNC(=O)Nc1ccc2c(c1)[C@]1(CC2)OC(=O)N(CC(=O)N(Cc2ccc(F)cc2)[C@@H](C)C(F)(F)F)C1=O is reported as 8.23%.
The inhibition of CNC(=O)c1ccc(Nc2ncc(C(F)(F)F)c(NCc3nccnc3N(C)S(C)(=O)=O)n2)cc1 is reported as 23.8%.
The inhibition of C[C@H](NC(=O)c1cnc2n1[C@](C)(Cc1ccc(C#N)cc1)C(=O)N2c1cc(Cl)c(F)c(Cl)c1)C(=O)NC1(c2ccccn2)CC1 is reported as -20.4%.
With Cc1nc(N2CC[C@@H](O)C2)ncc1-c1cc(C(F)(F)F)cc2[nH]ncc12 the inhibition was -2.13%.
For CN([C@@H]1CCc2c(CC(=O)O)c3cc(S(C)(=O)=O)ccc3n2C1)S(=O)(=O)c1ccc(F)cc1, the inhibition was -13.3%.
O=C(Nc1ccc(-n2nc(-c3cccnc3)cc2C(F)(F)F)cn1)c1ccc(-c2ccccc2)c(F)c1 has an inhibition of 3.71%.
For Cc1cc(C)c(-n2ccn3nc(-c4cccnc4)cc23)cc1NC(=O)c1cc(C#N)cc(S(F)(F)(F)(F)F)c1, the inhibition was 10.5%.
CC(=O)c1c(NS(C)(=O)=O)c2cc(-c3ccc(Cl)cc3)c(-c3ccc(Cl)cc3Cl)nc2n(C)c1=O gave an inhibition of 4.36%.
With O=C(Nc1cnc(Oc2ccc(F)cc2)nc1)N1CCc2ncccc2[C@@H]1c1ccc(F)cc1 the inhibition was -12.3%.
With O=C(O)c1cc(-c2ccc(C3CCNCC3)cc2)c2ccc(-c3ccc(C(F)(F)F)cc3)cc2c1 the inhibition was 9.47%.
O=C1c2ccc(Nc3ccc(F)cc3F)cc2CCc2ccc(OC[C@H](O)CO)cc21 gave an inhibition of 11.2%.
Cc1nc(C2CCN(C(=O)c3ccc(OC(F)(F)F)cc3N)CC2)c2ncc(N3CCN(C)CC3)cc2n1 has an inhibition of 18.6%.
The inhibition of CN1CCN(C(=O)C(C)(C)c2ccc(C(=O)Nc3cn4cc(-c5ccncc5)ccc4n3)cc2)CC1 is reported as 21.1%.
With C[C@@]1(Cc2ccc(C#N)cc2)C(=O)N(c2cc(Cl)cc(Cl)c2)c2ncc(C(=O)NC3(c4nc(C5CCC5)no4)CC3)n21 the inhibition was -17.9%.
Cc1c[nH]c2nccc(Oc3c(F)cc(Nc4cc(Cl)nc(N)n4)cc3F)c12 gave an inhibition of -0.34%.
Cc1cc(-n2nc(Cc3cc(F)cc(C(F)(F)F)c3)nc2C)ccc1C(N)=O has an inhibition of 1.72%.
With CC(=O)C1=C(C)N(c2cccc(C(F)(F)F)c2)C(=O)N[C@@H]1c1ccc(C#N)nc1 the inhibition was 10.4%.

Other studies, line by line
Cell line: HaCaT
Concentration: 100 µM
Time: 18 h
With C[C@]12CCC(=O)C=C1CC[C@@H]1[C@@H]2C(=O)C[C@]2(C)C(=O)CC[C@@H]12 the viability was 117%.
With CCC(=O)O[C@H]1CC[C@H]2[C@@H]3CC[C@H]4CC(=O)[C@H](C)C[C@]4(C)[C@H]3CC[C@]12C the viability was 107%.

Some of these lines once more (sample 2):
C/C(=C\c1csc(C)n1)[C@@H]1C[C@@H]2O[C@]2(C)CCC[C@H](C)[C@H](O)[C@@H](C)C(=O)C(C)(C)[C@@H](O)CC(=O)O1 gave a remaining activity of 100%.
With CCCC(C)(COC(N)=O)COC(=O)NC(C)C (centres unmarked) the remaining activity was 98.8%.
CCNCC(O)c1cccc(O)c1 (centres unmarked) gave a remaining activity of 103%.
C[C@]1(C(=O)O)[C@@H]2CC[C@@H](O2)[C@@]1(C)C(=O)O gave a remaining activity of 87.5%.
